Assay results from different studies.
Numbered parts are unrelated; each lists some results of a single study. Positions count from the first letter of the parent shown.

Block 1 — target: CCNB2, cyclin fold, Cln2 fusion (human); method: yeast growth competition, sequencing; matrix: yeast; setting: weak parent motif; baseline: not given; reading: higher = stronger binding
Starting sequence: CDKN1B docking peptide (human); PSACRNLFGPVDH
| Change | normalised enrichment score |
| --- | --- |
| PSACRNLFGGVDH [P10G] | 0.0795 |
| PSACRLLFGPVDH [N6L] | 0.187 |
| PSAMRNLFGPVDH [C4M] | -0.0261 |
| PSACRNLFGPVDS [H13S] | 0.228 |
| PSACRNLFGYVDH [P10Y] | 0.488 |
| PSACRKLFGPVDH [N6K] | 0.407 |
| PSATRNLFGPVDH [C4T] | -0.0623 |
| PSACRNLHGPVDH [F8H] | 0.225 |
| PSACRNLFGLVDH [P10L] | 0.539 |
| PSACRNLFGPVWH [D12W] | 0.428 |
| PSACRNLFGPRDH [V11R] | 0.0818 |
| PSACRHLFGPVDH [N6H] | -0.114 |
| PSACRNLFGPVGH [D12G] | -0.0113 |
| PSACGNLFGPVDH [R5G] | -0.535 |
| ASACRNLFGPVDH [P1A] | 0.135 |
| PSACRNYFGPVDH [L7Y] | 0.24 |
| PSACRNLFGPEDH [V11E] | -0.15 |

Block 2 — method: DHFR PCA, deep sequencing; matrix: yeast; with: (+)-ABA 58 µM; baseline: wild-type fitted maximum; reading: higher = stronger binding
Target: ABI1, truncated, D143A, DHFR fusion (Arabidopsis thaliana)
Setting: methotrexate growth selection, single substitutions
Starting sequence: PYL1, truncated, DHFR fusion (Arabidopsis thaliana); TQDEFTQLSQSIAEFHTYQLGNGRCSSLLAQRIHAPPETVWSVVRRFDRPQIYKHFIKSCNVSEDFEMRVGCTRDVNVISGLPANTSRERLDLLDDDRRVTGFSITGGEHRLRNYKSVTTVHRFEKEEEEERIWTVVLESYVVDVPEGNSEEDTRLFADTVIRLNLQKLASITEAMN
| Change | relative binding score [%] |
| --- | --- |
| F124V | 94.4 |
| L138Y | 53.2 |
| V143C | 79.2 |
| T1E | 89.1 |
| E38I | 32.7 |
| T17D | 63.9 |
| G108R | 8.32 |
| L29M | 76.6 |
| M176T | 82.2 |
| I79F | 86 |
| L169Y | -11.9 |
| L166E | -7.7 |
| T154P | 6.25 |
| L94R | 11.9 |
| W41S | -4.66 |
| V78N | 6.92 |

Block 3 — method: protein binding microarray; form: double-stranded DNA, one strand shown; matrix: in vitro; concentration: not given; baseline: not given; reading: higher = stronger binding
Target: Histone acetyltransferase KAT6A, winged helix 1, GST fusion (KAT6A, Homo sapiens, UniProt Q92794, residues 1-85)
Setting: 8-mer, flanks averaged, mean of 2 arrays, mostly near background
Residues (chain): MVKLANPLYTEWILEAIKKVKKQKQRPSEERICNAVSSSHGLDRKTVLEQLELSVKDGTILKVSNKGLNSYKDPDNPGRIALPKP
| Strand | E-score |
| --- | --- |
| CTACAGAA | -0.129 |
| ATTAGCAC | -0.0253 |
| CTCGTTCA | -0.0614 |
| ACTGCGCG | 0.385 |
| GCAGACCA | -0.014 |
| ATACAGGG | -0.0614 |
| AACACACC | -0.064 |
| TACAGACA | -0.119 |
| AGTTAAGG | -0.194 |
| AGCAGTAG | -0.175 |
| AAAATTGT | -0.289 |
| AGGGACAG | -0.219 |
| ACGACAAC | -0.0815 |
| AGAGTTTC | -0.164 |
| CAGGATAA | -0.27 |
| TGAGATAA | -0.0702 |
| TAAGAAAA | -0.0787 |
| CATTACAG | 0.0352 |
| GTCTCCGA | 0.0649 |
| GGTGCTAA | -0.0575 |
| AACTTCAC | -0.146 |
| AATTTACC | -0.0203 |
| TAGATTGA | 0.0643 |
| CACCGAGG | 0.0702 |
| TGGATACA | -0.24 |

Block 4 — target: FOS, bZIP domain (human); method: DHFR protein complementation; matrix: yeast; baseline: wild-type JUN-FOS pair; reading: higher = stronger binding
Setting: single substitutions, most at no-binding floor
Starting sequence: JUN, bZIP domain (human); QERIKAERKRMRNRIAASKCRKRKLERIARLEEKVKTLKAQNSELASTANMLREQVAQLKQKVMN; partner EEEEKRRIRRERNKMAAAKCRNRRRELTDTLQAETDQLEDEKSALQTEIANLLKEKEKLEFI
| Change | binding fitness |
| --- | --- |
| A57T | -0.0966 natural log |
| I28T | -0.169 natural log |
| N42I | 0.0293 natural log |
| R53G | -0.928 natural log |
| N42G | -1.15 natural log |
| A46H | -0.0815 natural log |
| L45K | -1.37 natural log |
| A29M | -0.372 natural log |
| A46P | -1.22 natural log |
| A49I | -0.445 natural log |
| M51H | -0.0723 natural log |
| L38Y | -1.28 natural log |
| Q55L | -0.146 natural log |
| Q55G | -0.932 natural log |
| V56F | -1.15 natural log |
| A40D | -0.114 natural log |
| T48C | -0.206 natural log |

Block 5 — method: RNA Bind-n-Seq; form: RNA; matrix: in vitro; concentration: 200 nM; setting: whole 134-nt RNA, ends assumed; with: 150 mM LiCl; baseline: input library; reading: higher = stronger binding; all molecules: 7-deaza-guanosine replaces G
Target: Fragile X messenger ribonucleoprotein 1, C-terminal low-complexity region (Fmr1, Mus musculus, UniProt P35922)
Shared flanks, not repeated: GGGAGUUCUACAGUCCGACGAUC … UGGAAUUCUCGGGUGUCAAGG
| Strand | log2 enrichment |
| --- | --- |
| AGUCCUGUGCUACACAUCGUAUGUACCGAAUCGGGGUUUUUGGUUUUUGGUUUUUGGGAAAGUAUUAUGUUACGCCGUUCGGAUCUGCAC | -1.86 |
| GUCCUGUGCUACACAUCGUAUGUACCGAAUCGGAAAAAAAGGAAAAAGGAAAAAAAGGAAAGUAUUAUGUUACGCCGUUCGGAUCUGCAC | -0.682 |
| AGUCCUGUGCUACACAUCGUAUGUACCGAAUCGGUUUUUUUGGAAAAAAAGGUUUGGAAAGUAUUAUGUUACGCCGUUCGGAUCUGCACU | -3.89 |
| GUCCUGUGCUACACAUCGUAUGUACCGAAUCGGGGAAAAAAAGGGGAAAGGGGAGGGGAAAGUAUUAUGUUACGCCGUUCGGAUCUGCAC | 1.02 |
| GCAGGAAGUAAAAACAAAUGGAAAUGCUUCGGAUAGUGGCAGGGGUGGGGGUUGCUAAGGAAAGGGUGGGAAAGGAGUGGGUAAAGAGUU | 1.9 |
| UCAAGUCCUGUGCUACACAUCGUAUGUACCGAAUCGGUUUUUGGUUUGGUUUGGAAAGUAUUAUGUUACGCCGUUCGGAUCUGCACUUCC | -1.47 |
| UCAAGUCCUGUGCUACACAUCGUAUGUACCGAAUCGGGGAGGGGUGGGGUGGGGAAAGUAUUAUGUUACGCCGUUCGGAUCUGCACUUCC | -0.369 |
| GCGGGAAGUAAAAACAAAUGGAAAUGCUUCGGAUAGUGGCAGGGGUGGGGGUUGCUAAGGAAAGGGUGGGAUGGGAGUGGGUAAAGAGUU | 1.75 |
| UGGGAGGUGGAUUUUGUUUAUUUUUUUAGCUCAUUUCCGGGGGUGGGAAUUUUUUUUUAAUAUGUGUCAUGAAUAAAGUUGUUUUUGAAA | 0.932 |
| UCCUGUGCUACACAUCGUAUGUACCGAAUCGGAAAAAAGGGAAAAAAGGGAAAAAAGGGGAAAGUAUUAUGUUACGCCGUUCGGAUCUGC | -0.82 |
| UAUUGGACACAGUGCCCCGCUGAACAGCAGCUGUUCCCAGCGCCAGAGGACCCCACAGCCACAGUAGGAGCUUUGCGACCCCUACGCAAC | -1.18 |

Block 6 — method: protein-binding microarray; form: double-stranded DNA, one strand shown; matrix: in vitro; concentration: 0.8 µM; setting: whole 60-bp probe, no competitor; reading: higher = stronger binding; shared flanks, not repeated: … GTCTTGATTCGCTTGACGCTGCTG
Target: Centromere-binding protein 1, full length, N-terminal tag (CBF1, Saccharomyces cerevisiae, UniProt P17106, residues 1-351)
Chain of UniProt P17106 (whole entry, looked up): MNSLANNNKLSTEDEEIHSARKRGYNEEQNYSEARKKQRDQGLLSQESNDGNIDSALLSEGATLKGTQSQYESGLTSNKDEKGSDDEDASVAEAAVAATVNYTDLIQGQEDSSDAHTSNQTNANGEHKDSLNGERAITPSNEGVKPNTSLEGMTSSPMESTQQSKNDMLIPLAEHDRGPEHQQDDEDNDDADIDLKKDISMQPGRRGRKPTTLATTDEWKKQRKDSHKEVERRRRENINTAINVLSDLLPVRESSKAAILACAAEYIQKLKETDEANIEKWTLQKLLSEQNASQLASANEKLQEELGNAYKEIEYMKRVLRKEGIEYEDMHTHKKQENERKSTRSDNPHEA
| Strand | fluorescence intensity |
| --- | --- |
| CTAATTGAAGTGAGTGTCACGTGCACAGCGACGTTC | 19000 a.u. |
| CTACCCATCGCATATCAGGAGAACTTCCCTGTGTTC | 524 a.u. |
| CTAAAATAGCTAACGCACGTATCGAATACCAAATTC | 500 a.u. |
| CTACAAAGGAGGGAGGTCGTGATAACAAACTGATTC | 641 a.u. |
| TGTACGAAGCTATTTCTGATGTTTATAGTAGTTAGG | 537 a.u. |
| GAAATGGAACTTTATCAGGAGAAGTGGTTCAAATAG | 524 a.u. |
| TGTACGAAGCTATCTCATGTGATTATAGTAGTTAGG | 893 a.u. |
| GAAATGGTTGTATTATTGGTGGTGTCAGTAGGGTAG | 556 a.u. |
| CTAATCATCCTTTACCACGTCATTCATTAAAACTTC | 570 a.u. |
| GAAGCCTGAGTTACTCTCATGATTGGGACCGAATAG | 525 a.u. |
| CTAGGAATTGTGCGTGGTCATTCAATACGGAGATTC | 585 a.u. |
| TGTACGAAGCTATGTCTGATGACTATAGTAGTTAGG | 570 a.u. |
| GAATATATCTCGAGTCACCTTCAAAAATCAAACTAG | 558 a.u. |
| GAACCTCTTACACCGCATGTGATGCTATTACTATAG | 1340 a.u. |
| CTAAAAAGAACTGTGTACGTGATTTCTTTGTCCTTC | 697 a.u. |
| GAAACGAATATGGGAATCGTGATTAATTAAGTGTAG | 733 a.u. |
| CTAATTGAGTGCAAAGATCTGATGCATCCCATTTTC | 497 a.u. |
| GAACCAAACGAAACCCCCGTGCTTCTGTTTCTCTAG | 682 a.u. |
| CCTAACTACTATAAGCACGTGCTATAGCTTCGTACA | 15000 a.u. |
| TGTACGAAGCTATGTCATGCTCATATAGTAGTTAGG | 573 a.u. |
| GAATTCAAAGATAATTTTGTCACGTTTGTTCTGTAG | 1400 a.u. |

Further values, each from its own experiment
| Substance | target | test | test system | setting | how to read | quantity | result |
| --- | --- | --- | --- | --- | --- | --- | --- |
| PhoQ, residues 284 288 289 292 302 303 WVSSAF | PhoP, residues 12 14 15 18 19 LHATL (Escherichia coli, UniProt P23836) | Sort-seq, refers to: YFP reporter | E. coli | PhoQ-PhoP variant library, with: 10 µM Mg2+ | baseline: high Mg2+ state, higher = stronger signaling | fold induction | 1.87 |
